# Measurements of several laboratories.
# Numbered parts are unrelated; each lists some results of a single study.

# Sample 1
# Target: Histone acetyltransferase KAT6A, winged helix 1, GST fusion (KAT6A, Homo sapiens, UniProt Q92794, residues 1-85)
# Technique: protein binding microarray
# Molecule type: double-stranded DNA, one strand shown
# Medium: in vitro
# Tested at: not given
# Notes: 8-mer, flanks averaged, mean of 2 arrays, mostly near background
# Baseline: not given
# Reading: higher = stronger binding
# Target sequence (chain): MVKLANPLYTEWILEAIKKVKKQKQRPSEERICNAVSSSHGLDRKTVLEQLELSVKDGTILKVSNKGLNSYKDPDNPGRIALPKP
Sequence,E-score
ACGTGATC,0.0987
ATATCATA,-0.074
AATTCTCC,-0.0223
GGATCCAC,0.0854
GAAGTCAA,-0.214
GAGCTGGA,-0.15
CGGCGGCA,0.471
CCGGCACC,0.255
GAGAGCAA,-0.265
ATACAGTC,-0.147
ATAGTGCC,-0.00962
GAGCCTAA,-0.229
GACTGGGC,-0.221
CTCTGAAG,-0.0624
TAAGCCAA,-0.256
TAGCAAGA,-0.217
GATTGTAC,-0.0572

# Sample 2
# Target: RING finger protein unkempt homolog, zinc fingers 1-6, GST-SBP tag (UNK, Homo sapiens, UniProt Q9C0B0, residues 30-357)
# Technique: RNA Bind-n-Seq
# Molecule type: RNA
# Medium: in vitro
# Tested at: not given
# Notes: RNA with constant flanks, human and mouse sites, ends assumed
# Baseline: input RNA pool
# Reading: higher = stronger binding
# Constant ends, left off below: GGGAGUUCUACAGUCCGACGAUC … CAACAGAGGAUUGAGCAUCA
# Construct (chain): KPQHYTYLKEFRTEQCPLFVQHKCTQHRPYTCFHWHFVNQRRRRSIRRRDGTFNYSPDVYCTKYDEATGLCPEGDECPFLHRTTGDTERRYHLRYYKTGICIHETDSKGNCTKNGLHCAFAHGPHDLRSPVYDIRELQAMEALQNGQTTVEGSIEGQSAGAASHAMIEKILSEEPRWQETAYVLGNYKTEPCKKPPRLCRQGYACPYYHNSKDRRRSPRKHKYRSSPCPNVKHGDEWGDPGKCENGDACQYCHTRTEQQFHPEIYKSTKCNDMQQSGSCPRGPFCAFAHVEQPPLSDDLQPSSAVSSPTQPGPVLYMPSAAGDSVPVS
Sequence,bound/input enrichment
GACAUUCAGGAUGAGAUGGGCAGGCACGAAGUGGGCCACAUCGACAACUCCAUGAAGAUCCCGCUGAACAAUGGGGCAGGCUGCCGCUUCGAGGGGCAGUUCAGCAUCAACAAGGUCCCC,0.0328 ratio
AAAAUGAGGGCAAGAAAGGAAAAGGAAAUAAAAGGAGUACAGAAGAAAGGGAGAAGAGAGUCAAGAAGAAAGCAGACAAGAGGAUACAUGAAGUGGCUAUGGGAGAAACAAAAGCCCAAA,0.515 ratio
CACUAAAUGGCAGGCACUUGAAAAUGGGUGGAUUUCCCUUGUCGUUGUCUUUUCUAUUGAUAGUUGGGAUUUGGGAGAGAAGAAAGAGGUUUUCGAAACUGAAUCACUACUGAGUUGAAC,0.195 ratio
UGCACUCUUUCAGCCUCAGCAGCACCCAGCACGUGACCAACAUGAUACUUUCUUCCUGCGAGGUUGGUAGCCCGGGAGCCUGGCCAAUGUGGUAGCAGAAGUCUCAAGUCUGGAUAAAGC,0.189 ratio
UCAGCGUUUGACAAUCCAACUUACGAGACUGGAGAGACGAGAGAAUAUGAAGUCUCCAUCUAGGUGGGGGCAGUCUAGGGAAGUCAACUCAGACUUGCACCACAGUCCAGCAGCAAGGCU,0.17 ratio
GCAGCGUGUGUGCCAAAACUCCCAUUCUCCUACCCCACUCCACCUUUCCUAGUGCUGAGAAUCUAAAUGGUGCCAACCAACACUGGGCUGUCUAUCACCUGUAAAUAUGAACACAGUCCC,0.383 ratio
AAGCUUGGUGGGACAAUUGAUGACUGUGAGUUGGUGGAAGGGCUGGUUCUCACCCAAAAAGUGUCAAAUUCUGGCAUAACCAGAGUUGAAAAGGCCAAGAUUGGGCUUAUUCAGUUUUGC,0.0949 ratio
CCUGGCAACCGAGCCCCCGAUCCCACAGAGAGUCGAAGUCUUCAUAUUCAGCACCCAGGGUAUAGAUAGGUAGCCCUGCUGCCCUCCACGUGCAACACAUCAUACAUCACCCUCCUAGGU,0.276 ratio
GUGGCCUUUCAGUUCACGGUCACUCCGGACGGGAUUGACCUGCGGCUGAGCCAUGAAGCUCUUAGACAAAUCUAUCUCUCUGGACUUCAUUCCUGGAAAAAGAAGUUCAUCAGAUUCAAG,0.25 ratio
UCCAGACAGGAAGAACAAAACCCAUUCUAGCACUUUCAUUUUUAAAAAAAAAAAGGUUUAUAGCUUUUUGUUCCGCCCUCCUCCUCCCCAUUUCACAAUGUCCAUUCCUUAAGAAGGGUU,12.7 ratio
AGGCACUGGGAGGCUGUUUCAGGAAAGUGAGACUCAAGAGGAAGACAGAAAAGGUUGUAACGUAGAGGAAGUGAGACUGGUGAAUUGGUUUGAUUUUUUUCACAUCUAGAUGGCUGUCAU,0.553 ratio

# Sample 3
# Target: Fragile X messenger ribonucleoprotein 1, C-terminal low-complexity region (Fmr1, Mus musculus, UniProt P35922)
# Technique: RNA Bind-n-Seq
# Molecule type: RNA
# Medium: in vitro
# Tested at: 200 nM
# Notes: whole 134-nt RNA, ends assumed
# With: 150 mM KCl
# Baseline: input library
# Reading: higher = stronger binding
# Constant ends, left off below: GGGAGUUCUACAGUCCGACGAUC … UGGAAUUCUCGGGUGUCAAGG
Sequence,log2 enrichment
GCAGGAAGUAAAAACAAAUGGAAAUGCUUCGGAUAGUGGCAGGGGUGGGGGUUGCUAAGGAAAGGGUAGGAUGGGAGUGGGUAAAGAGUU,0.272
CAAGUCCUGUGCUACACAUCGUAUGUACCGAAUCGGUUUUUUUGGUGGUUUUUGGAAAGUAUUAUGUUACGCCGUUCGGAUCUGCACUUC,-0.622
UGGGAGGUGGAUUUUGUUUAUUUUUUUAGCUCAUUUCCAGGGGUGGGAAUUUUUUUUUAAUAUGUGUGAUGAAUAAAGUUGUUUUUGAAA,0.251
CAAGUCCUGUGCUACACAUCGUAUGUACCGAAUCGGGGUUUGGGGUUUGGGUUUGGAAAGUAUUAUGUUACGCCGUUCGGAUCUGCACUU,0.00663
CUGUGCUACACAUCGUAUGUACCGAAUCGGGAAAAAAAGGAAAAAAAGGGAAAAAAAGGGGAAAGUAUUAUGUUACGCCGUUCGGAUCUG,-0.884
UGGCCCUGGUGGCAUGCGGGGGGGAAGAGGUGGCCUCAUGGAUCGUGGUGGUCCCGGUGGAAUGUUCAGAGGUGGCCGUGGUGGAGACAG,0.348
UGGCCCUGGUGGCAUGCGGGGAGGAAGAGGUUGCCUCAUGGAUCGUGGUGGUCCCGGUGGAAUGUUCAGAGGUGGCCGUGGUGGAGACAG,-0.204
UCCUGUGCUACACAUCGUAUGUACCGAAUCGGAAAAAAGGGGAAAAAAGGGAAAAAAGGGAAAGUAUUAUGUUACGCCGUUCGGAUCUGC,-0.292
CACAGACAACACGCACCCACACAGACACAGAGGGAAGGGGUUGGGAUGGGGACAGGGUGCACAGCAGGGCGGGGUAGGACCCAAGCCCCU,1.33
ACAAGUGGAGGAGAAGAACUUAGAAGAACUAGAGGAGAAAUCUACUACUCCUCCUCCGGCAGAACCUGUUUCUCUGCCACAAGAACCACC,-0.463
AAGUCCUGUGCUACACAUCGUAUGUACCGAAUCGGGUUUUUUUGGGAAAGGGAGGGAAAGUAUUAUGUUACGCCGUUCGGAUCUGCACUU,0.747
AAGUCCUGUGCUACACAUCGUAUGUACCGAAUCGGGAAAGGGAAAGGGAAAAAGGGAAAGUAUUAUGUUACGCCGUUCGGAUCUGCACUU,-0.0271
AAGUCCUGUGCUACACAUCGUAUGUACCGAAUCGGGUUUGGGUUUGGGUUUUUGGGAAAGUAUUAUGUUACGCCGUUCGGAUCUGCACUU,0.706
UUCAGUUAUUCAAGCGGAGAAAUGUUGCUACAGCAGAAGAAGAAACAGAAGAAGAAGUUAUGUCAGAUGGAGGCUUUCAUGAGGCUCAGA,-1.81

# Sample 4
# Target: RNA binding protein fox-1 homolog 2, RRM domain, GST-SBP tag (RBFOX2, Homo sapiens, UniProt O43251-10, residues 100-194)
# Technique: RNA Bind-n-Seq
# Molecule type: RNA
# Medium: in vitro
# Tested at: 365 nM
# Notes: natural RNA segment, single round, ends assumed
# Baseline: no-protein control
# Reading: higher = stronger binding
# Constant ends, left off below: GGGAGUUCUACAGUCCGACGAUC … UGGAAUUCUCGGGUGCCAA
# Target sequence (chain): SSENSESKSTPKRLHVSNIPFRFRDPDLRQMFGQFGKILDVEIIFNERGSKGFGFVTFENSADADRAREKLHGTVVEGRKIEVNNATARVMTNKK
Sequence,RBNS enrichment (R)
AUGUCCUAUAAAUGCACCUCCUGUCAAAACCAUGCCUGAGAGGUCCCGGCUGGGAGUGACAGGGUGCUUCUUAGAUUCUAUUGGUCCUUCUCUCAUUCUCCGAACUUACU,0.374
GUAAAUUUGAAGUCAUUGUUAUAAAAUAAUAAAGUGGAGAUUACUUAAGUAUUUAAAUUAUGAAAGAAUAAUGCAGACUUUUUAUUGUUUCUUAACUGACUAGAAAGAGC,0.632
UGAUAAUGUGAUUGAACACUUUAGUAAUGCAAAAUAACUCAUUUCCAACUACUGCUGCAGCAUUUUGGUAAAAACCUGUAGCGAUUCGUUACACUGGGGUGAGAAGAGAU,0.694
UUUCAUUUGACUUACAACACACUUCUCUAACAUCUAGCCCUUUUAAAUUUUUAAUUAAUUUCAAAGCUUCCUCUGGCCAGGUAGACUUUUGUAUACAGACCAGGUGAGAG,0.289
GAUUAUUCCAUAUUAUUAAAGAAAAAAAAAGCCAAAAAACUGCAAGCCACCUCUCUCUUUCUUGCUAUCUUUUUUUUCUCUCUCUCUCUAUCUCAAGUUUGUGCAGGGAG,0.681
UAGCGCUGUUGAUCCCCUCUCUGUGGCUCCAACCCGUUGGGUCCCUUGCUGCAAACCCAUGAAGCUGGCCCUCAGCUCCCUGACCCCCUGUCCUAGGUCAUGAAGGACAC,0.397
UUGUGCAGGAAACCAGCCAUUUAAUUGUUCUAGAGUUUUAGCAUUUAAAAAUCGUAUGAAAGUCUACAUCAGCUGAAUUGUCCUAGCUUGAUAAGCACUUGGAGGGGGAC,0.988
UCUAGUCUAAGUAAGAAUGUCUUUUGCCUGCGCGUGGAGGCACAGUAGAAAUCUCAAGGCUUUACCCAGAAGAGCCCAGUCAGGGAGAGGUGUAAAUGCAAAAUUGCCAA,4.63
AACACAGAAGCAACGAGAAAUGUGACUCUUGUUAUUUUAAACCACAGACGGACUUGGGUUAAGGGAAUGGGGACGACAGCUUUGGUGCUAAGUUAAUCAGAAAUUGCGAG,0.751
AAUAGCCAGAUAUGAGUUUAAACUUUUUUCAUGCUUGUAUAUUUUAUUUUUAACUAUAUACAAGUAUGAAAUCUAACAAUUUUCUAACAAAUUGUCUUAUAUAUGAAGCC,0.696
CAUUAGUCAUUUUAGUCGAUUCCAACAGGUGAGACUUGCUUUCUACAAAGCAUCCCUUAGAAGUCCAUGCUGGGCAGACAUUGAACACAGUGCCUUAUUAUGUUUCUCCC,0.455
CAAGAAAAGGUUUUAAGCCUACUGGAUGGAGUCUAAAAUUCUUAGAAAUCAACUUUAGAGCUUUGCUUUUCUCUGAGUUCAUCCUGCAGUGAAUGACAGGUACUGACAGC,0.394

# For quick reference, copied from above (sample 4):
Sequence,RBNS enrichment (R)
UAGCGCUGUUGAUCCCCUCUCUGUGGCUCCAACCCGUUGGGUCCCUUGCUGCAAACCCAUGAAGCUGGCCCUCAGCUCCCUGACCCCCUGUCCUAGGUCAUGAAGGACAC,0.397
UGAUAAUGUGAUUGAACACUUUAGUAAUGCAAAAUAACUCAUUUCCAACUACUGCUGCAGCAUUUUGGUAAAAACCUGUAGCGAUUCGUUACACUGGGGUGAGAAGAGAU,0.694
CAUUAGUCAUUUUAGUCGAUUCCAACAGGUGAGACUUGCUUUCUACAAAGCAUCCCUUAGAAGUCCAUGCUGGGCAGACAUUGAACACAGUGCCUUAUUAUGUUUCUCCC,0.455
AAUAGCCAGAUAUGAGUUUAAACUUUUUUCAUGCUUGUAUAUUUUAUUUUUAACUAUAUACAAGUAUGAAAUCUAACAAUUUUCUAACAAAUUGUCUUAUAUAUGAAGCC,0.696
CAAGAAAAGGUUUUAAGCCUACUGGAUGGAGUCUAAAAUUCUUAGAAAUCAACUUUAGAGCUUUGCUUUUCUCUGAGUUCAUCCUGCAGUGAAUGACAGGUACUGACAGC,0.394
